Experimental data collected from several papers.
Numbers after ± are the reported error.

SMILES	organism	assay	system	conditions	how to read	endpoint	result
CC[C@H](C)[C@H](NC(=O)[C@H](CCCCN)NC(=O)[C@H](CCCCN)NC(=O)[C@H](CC(C)C)NC(=O)[C@H](CCCCN)NC(=O)[C@H](CCC(=O)O)NC(=O)[C@H](CCCCN)NC(=O)[C@@H](NC(=O)[C@H](CCCCN)NC(=O)[C@H](CC(N)=O)NC(=O)[C@H](CCCNC(=N)N)NC(=O)[C@H](Cc1ccccc1)NC(=O)[C@H](CCCCN)NC(=O)[C@H](CCCNC(=N)N)NC(=O)[C@H](CC(C)C)NC(=O)[C@H](CCCNC(=N)N)NC(=O)[C@H](CCCCN)NC(=O)[C@H](CCCNC(=N)N)NC(=O)[C@H](CC(C)C)NC(=O)CN)[C@@H](C)CC)C(=O)NCC(=O)N[C@@H](CCC(N)=O)C(=O)N[C@@H](CCCCN)C(=O)N[C@H](C(=O)N[C@@H](CCC(N)=O)C(=O)NCC(=O)N[C@@H](Cc1ccccc1)C(=O)N[C@H](C(=O)N1CCC[C@H]1C(=O)N[C@@H](CCCCN)C(=O)N[C@@H](CC(C)C)C(=O)N[C@@H](C)C(=O)N1CCC[C@H]1C(=O)N[C@@H](CCCNC(=N)N)C(=O)N[C@H](C(=O)N[C@@H](CC(=O)O)C(=O)N[C@@H](Cc1ccc(O)cc1)C(=O)O)[C@@H](C)O)C(C)C)[C@@H](C)CC	Streptococcus salivarius	inhibition zone	ATCC 1.2498	LB agar, overnight		lethal concentration	2.25 µM
CC(=O)O[C@@H]1C[C@@H](C)O[C@H]2O[C@@H]3C[C@@H]4CC[C@@H]5[C@H](CC[C@]6(C)[C@@H](C7=CC(=O)OC7)CC[C@]56O)[C@@]4(C)C[C@H]3O[C@]21O	Schistosoma mansoni		mouse chronic infection, liver	oral, 10 mg/kg single, live worms		worm count	3 ± 4.2
CC(=O)CCC1C(=O)NC(C(C)C)C(=O)NC(Cc2cc(O)cc(F)c2)C(=O)N2CCCC(N2)C(=O)OC(C(C)=CC=CC(=O)N2CCCCO2)CC=CC=CC(O)C(C)C1O (stereo not drawn)	Hepatitis C virus	viral replication, inhibitor	HCV replicon cells, D320E		baseline: wild-type replicon	fold resistance	> 2 fold
COc1ccc(Br)cc1/C=N/NC(=O)Cn1ccc(=O)c2ccccc21	Rhizoctonia solani	microbial growth		50 µg/mL		inhibition	14.3%
CCOC(=O)c1c(-c2ccccc2)oc2ccc(NS(=O)(=O)c3ccc(F)cc3)cc12	porcine epidemic diarrhea virus			15 µM, 15 h post-infection		viral replication	inhibited
O=C(Cn1ccc(=O)c2ccccc21)N/N=C/c1cc(Br)c(O)c(Br)c1	Rhizoctonia solani	microbial growth		50 µg/mL		inhibition	25%
C=CCc1ccc(OCc2ccccc2)c(OC)c1	Spodoptera frugiperda		larvae	250 µg/mL	baseline: untreated control	antifeedant index	42.5%
O=C(Cc1csc2nc(-c3ccc(Br)cc3)cn12)NN=C1CCCC1	herpes simplex virus 1	viral cytopathicity, microscopy	HEL			EC50	> 100 µg/mL
C=C(C)[C@@H]1CC[C@]2(C(=O)N3CCN(C)CC3)CC[C@]3(C)[C@H](CC[C@@H]4[C@@]5(C)CCCNC(C)(C)[C@@H]5CC[C@]43C)[C@@H]12	Human cytomegalovirus		HFF, AD169		baseline: CC50 over EC50	selectivity index	< 3

For quick reference, copied from above:
SMILES	organism	assay	system	conditions	how to read	endpoint	result
CC[C@H](C)[C@H](NC(=O)[C@H](CCCCN)NC(=O)[C@H](CCCCN)NC(=O)[C@H](CC(C)C)NC(=O)[C@H](CCCCN)NC(=O)[C@H](CCC(=O)O)NC(=O)[C@H](CCCCN)NC(=O)[C@@H](NC(=O)[C@H](CCCCN)NC(=O)[C@H](CC(N)=O)NC(=O)[C@H](CCCNC(=N)N)NC(=O)[C@H](Cc1ccccc1)NC(=O)[C@H](CCCCN)NC(=O)[C@H](CCCNC(=N)N)NC(=O)[C@H](CC(C)C)NC(=O)[C@H](CCCNC(=N)N)NC(=O)[C@H](CCCCN)NC(=O)[C@H](CCCNC(=N)N)NC(=O)[C@H](CC(C)C)NC(=O)CN)[C@@H](C)CC)C(=O)NCC(=O)N[C@@H](CCC(N)=O)C(=O)N[C@@H](CCCCN)C(=O)N[C@H](C(=O)N[C@@H](CCC(N)=O)C(=O)NCC(=O)N[C@@H](Cc1ccccc1)C(=O)N[C@H](C(=O)N1CCC[C@H]1C(=O)N[C@@H](CCCCN)C(=O)N[C@@H](CC(C)C)C(=O)N[C@@H](C)C(=O)N1CCC[C@H]1C(=O)N[C@@H](CCCNC(=N)N)C(=O)N[C@H](C(=O)N[C@@H](CC(=O)O)C(=O)N[C@@H](Cc1ccc(O)cc1)C(=O)O)[C@@H](C)O)C(C)C)[C@@H](C)CC	Streptococcus salivarius	inhibition zone	ATCC 1.2498	LB agar, overnight		lethal concentration	2.25 µM
